Assay results collected from several papers.
Parts stem from different laboratories: compare values within a part only.
Chain of UniProt P51451 (whole entry, looked up): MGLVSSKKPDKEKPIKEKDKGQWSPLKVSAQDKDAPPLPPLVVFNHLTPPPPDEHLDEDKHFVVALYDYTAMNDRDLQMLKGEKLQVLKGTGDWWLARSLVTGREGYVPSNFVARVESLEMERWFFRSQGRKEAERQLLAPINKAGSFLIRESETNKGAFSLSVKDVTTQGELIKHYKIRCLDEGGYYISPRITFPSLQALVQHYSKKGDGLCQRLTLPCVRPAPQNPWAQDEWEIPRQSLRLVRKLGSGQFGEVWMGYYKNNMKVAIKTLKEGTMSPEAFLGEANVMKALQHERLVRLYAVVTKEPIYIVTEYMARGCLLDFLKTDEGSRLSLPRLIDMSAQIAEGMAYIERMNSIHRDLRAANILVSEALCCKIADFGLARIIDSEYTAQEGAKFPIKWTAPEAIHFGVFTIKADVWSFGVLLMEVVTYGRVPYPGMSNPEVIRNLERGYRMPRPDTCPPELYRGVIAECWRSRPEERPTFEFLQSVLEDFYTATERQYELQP
Chain of UniProt P51817 (whole entry, looked up): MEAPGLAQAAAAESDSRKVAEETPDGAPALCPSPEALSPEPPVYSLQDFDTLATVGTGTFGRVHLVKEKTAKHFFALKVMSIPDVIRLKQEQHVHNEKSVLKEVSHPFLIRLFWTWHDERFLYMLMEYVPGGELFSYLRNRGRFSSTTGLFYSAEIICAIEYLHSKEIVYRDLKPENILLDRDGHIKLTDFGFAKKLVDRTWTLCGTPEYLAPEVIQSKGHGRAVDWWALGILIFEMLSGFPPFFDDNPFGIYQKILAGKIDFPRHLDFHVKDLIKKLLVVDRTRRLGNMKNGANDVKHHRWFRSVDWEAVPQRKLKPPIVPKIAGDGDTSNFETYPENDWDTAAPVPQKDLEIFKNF
Chain of UniProt Q96Q40 (whole entry, looked up): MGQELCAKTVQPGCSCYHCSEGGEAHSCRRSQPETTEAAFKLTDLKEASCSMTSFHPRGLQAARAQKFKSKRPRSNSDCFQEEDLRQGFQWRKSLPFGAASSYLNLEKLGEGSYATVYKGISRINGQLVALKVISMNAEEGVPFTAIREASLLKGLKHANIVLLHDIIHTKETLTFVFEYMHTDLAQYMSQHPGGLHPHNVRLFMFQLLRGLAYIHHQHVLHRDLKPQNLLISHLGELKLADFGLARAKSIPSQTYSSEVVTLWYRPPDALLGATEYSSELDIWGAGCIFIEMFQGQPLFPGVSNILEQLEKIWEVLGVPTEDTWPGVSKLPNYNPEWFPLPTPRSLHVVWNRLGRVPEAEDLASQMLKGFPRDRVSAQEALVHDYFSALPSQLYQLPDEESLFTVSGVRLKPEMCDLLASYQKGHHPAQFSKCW
Chain of UniProt Q00534 (whole entry, looked up): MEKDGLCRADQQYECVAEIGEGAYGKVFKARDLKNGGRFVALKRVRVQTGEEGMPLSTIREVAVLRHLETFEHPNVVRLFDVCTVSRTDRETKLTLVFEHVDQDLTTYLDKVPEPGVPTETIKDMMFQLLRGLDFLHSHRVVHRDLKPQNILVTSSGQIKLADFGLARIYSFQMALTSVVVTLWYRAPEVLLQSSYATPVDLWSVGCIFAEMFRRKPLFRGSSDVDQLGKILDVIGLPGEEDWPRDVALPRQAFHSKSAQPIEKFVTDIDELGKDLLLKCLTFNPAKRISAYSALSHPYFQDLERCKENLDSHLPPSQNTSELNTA
Chain of UniProt Q8WXR4 (whole entry, looked up): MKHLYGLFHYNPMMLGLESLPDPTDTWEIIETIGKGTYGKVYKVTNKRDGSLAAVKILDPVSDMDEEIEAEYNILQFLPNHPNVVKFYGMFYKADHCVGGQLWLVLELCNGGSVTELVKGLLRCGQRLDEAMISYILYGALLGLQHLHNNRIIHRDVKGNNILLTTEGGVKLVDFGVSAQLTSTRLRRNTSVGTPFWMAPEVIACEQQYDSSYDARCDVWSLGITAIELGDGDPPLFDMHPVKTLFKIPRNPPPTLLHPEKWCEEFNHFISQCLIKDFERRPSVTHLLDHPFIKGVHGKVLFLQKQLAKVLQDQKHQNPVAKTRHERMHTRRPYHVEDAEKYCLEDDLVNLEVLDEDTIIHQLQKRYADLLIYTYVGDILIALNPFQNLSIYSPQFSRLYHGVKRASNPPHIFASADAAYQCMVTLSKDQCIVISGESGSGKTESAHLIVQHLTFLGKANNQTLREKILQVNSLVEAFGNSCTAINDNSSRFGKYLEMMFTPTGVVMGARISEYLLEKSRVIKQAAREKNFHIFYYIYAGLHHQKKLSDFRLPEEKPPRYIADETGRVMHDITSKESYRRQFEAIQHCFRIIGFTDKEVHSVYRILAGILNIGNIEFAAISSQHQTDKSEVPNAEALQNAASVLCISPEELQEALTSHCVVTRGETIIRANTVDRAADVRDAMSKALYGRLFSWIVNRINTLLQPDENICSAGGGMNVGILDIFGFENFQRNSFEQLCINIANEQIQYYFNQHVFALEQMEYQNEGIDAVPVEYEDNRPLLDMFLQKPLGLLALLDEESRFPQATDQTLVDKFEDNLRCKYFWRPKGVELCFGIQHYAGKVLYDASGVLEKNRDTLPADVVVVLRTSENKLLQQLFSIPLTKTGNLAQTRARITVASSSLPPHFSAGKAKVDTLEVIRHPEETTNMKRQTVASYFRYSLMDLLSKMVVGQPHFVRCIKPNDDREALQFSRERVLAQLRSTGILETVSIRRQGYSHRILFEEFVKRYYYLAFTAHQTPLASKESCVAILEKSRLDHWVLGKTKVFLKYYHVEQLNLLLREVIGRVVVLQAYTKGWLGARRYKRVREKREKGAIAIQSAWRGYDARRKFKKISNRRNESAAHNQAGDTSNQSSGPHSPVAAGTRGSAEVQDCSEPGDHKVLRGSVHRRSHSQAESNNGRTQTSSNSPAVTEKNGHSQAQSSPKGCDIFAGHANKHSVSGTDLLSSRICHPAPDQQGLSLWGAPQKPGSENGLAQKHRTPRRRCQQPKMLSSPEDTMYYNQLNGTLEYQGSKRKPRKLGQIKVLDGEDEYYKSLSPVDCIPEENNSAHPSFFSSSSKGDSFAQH
Chain of UniProt Q96PF2 (whole entry, looked up): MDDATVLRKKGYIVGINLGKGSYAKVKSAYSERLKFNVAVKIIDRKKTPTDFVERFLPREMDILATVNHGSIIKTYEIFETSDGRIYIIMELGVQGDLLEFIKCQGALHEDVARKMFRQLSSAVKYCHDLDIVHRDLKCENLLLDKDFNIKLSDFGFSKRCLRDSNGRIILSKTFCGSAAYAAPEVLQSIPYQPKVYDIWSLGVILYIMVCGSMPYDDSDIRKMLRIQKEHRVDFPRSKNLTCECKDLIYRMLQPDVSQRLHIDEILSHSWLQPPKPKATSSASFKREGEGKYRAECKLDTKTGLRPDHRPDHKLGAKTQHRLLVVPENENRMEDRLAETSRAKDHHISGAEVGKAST
Chain of UniProt O15530 (whole entry, looked up): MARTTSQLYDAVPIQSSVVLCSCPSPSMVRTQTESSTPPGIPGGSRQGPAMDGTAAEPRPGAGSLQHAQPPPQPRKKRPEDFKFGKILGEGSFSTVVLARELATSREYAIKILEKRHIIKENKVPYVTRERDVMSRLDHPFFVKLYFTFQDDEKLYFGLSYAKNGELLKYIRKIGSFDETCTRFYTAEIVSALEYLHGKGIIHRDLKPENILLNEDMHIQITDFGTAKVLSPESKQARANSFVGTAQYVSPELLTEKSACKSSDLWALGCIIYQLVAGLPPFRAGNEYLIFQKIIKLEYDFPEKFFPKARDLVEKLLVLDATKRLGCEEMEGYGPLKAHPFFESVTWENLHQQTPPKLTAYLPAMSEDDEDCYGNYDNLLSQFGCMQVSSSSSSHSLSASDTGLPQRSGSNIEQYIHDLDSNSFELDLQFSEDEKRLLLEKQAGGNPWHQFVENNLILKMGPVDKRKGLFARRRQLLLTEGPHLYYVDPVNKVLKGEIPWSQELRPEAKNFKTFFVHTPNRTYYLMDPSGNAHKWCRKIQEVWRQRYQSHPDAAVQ
Chain of UniProt Q13705 (whole entry, looked up): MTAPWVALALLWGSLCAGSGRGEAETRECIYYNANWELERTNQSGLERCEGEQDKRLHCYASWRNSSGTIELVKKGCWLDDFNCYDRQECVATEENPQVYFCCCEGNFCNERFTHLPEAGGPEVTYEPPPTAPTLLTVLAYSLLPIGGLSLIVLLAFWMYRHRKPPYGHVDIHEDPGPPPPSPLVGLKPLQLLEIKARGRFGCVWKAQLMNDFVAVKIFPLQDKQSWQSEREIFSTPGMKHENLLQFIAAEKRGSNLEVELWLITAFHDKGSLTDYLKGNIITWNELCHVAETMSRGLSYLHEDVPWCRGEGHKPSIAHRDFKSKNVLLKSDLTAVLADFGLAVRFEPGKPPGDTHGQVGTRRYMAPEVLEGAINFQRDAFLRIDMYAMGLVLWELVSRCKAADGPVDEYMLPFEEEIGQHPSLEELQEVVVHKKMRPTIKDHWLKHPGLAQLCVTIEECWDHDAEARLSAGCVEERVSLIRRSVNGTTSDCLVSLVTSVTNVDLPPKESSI
Chain of UniProt Q16816 (whole entry, looked up): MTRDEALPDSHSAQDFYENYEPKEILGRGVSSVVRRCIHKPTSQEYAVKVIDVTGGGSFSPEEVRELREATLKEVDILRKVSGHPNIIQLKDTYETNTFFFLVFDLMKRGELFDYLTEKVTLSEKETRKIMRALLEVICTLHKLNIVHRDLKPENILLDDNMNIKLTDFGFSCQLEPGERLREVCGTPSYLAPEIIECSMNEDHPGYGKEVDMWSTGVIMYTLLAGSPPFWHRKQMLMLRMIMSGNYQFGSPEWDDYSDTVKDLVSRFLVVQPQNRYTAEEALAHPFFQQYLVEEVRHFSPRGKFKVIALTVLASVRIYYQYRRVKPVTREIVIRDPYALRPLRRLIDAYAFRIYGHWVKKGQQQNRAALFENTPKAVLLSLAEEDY

Set 1
Structure (SMILES): CN(C)C[C@H]1CCn2c(c(C3=C(c4cn(C)c5ccccc45)C(=O)NC3=O)c3ccccc32)C1
Effect on: enzyme activity
Action: inhibitor
Tested at: 0.5 µM
Relative to: control
target | remaining activity [%]
PHKG1 (Homo sapiens, UniProt Q16816) | 78.4
EPHB1 (Homo sapiens, UniProt P54762) | 106
HIPK2 (Homo sapiens, UniProt Q9H2X6) | 94.1
STK16 (Homo sapiens, UniProt O75716) | 109
STK17A (Homo sapiens, UniProt Q9UEE5) | 87.6
Cyclin-dependent kinase 1, with cyclin B (CDK1, Homo sapiens, UniProt P06493) | 53.7
EPHA4 (Homo sapiens, UniProt P54764) | 103
PDPK1 (Homo sapiens, UniProt O15530) | 97
WNK3 (Homo sapiens, UniProt Q9BYP7) | 100
RPS6KA6 (Homo sapiens, UniProt Q9UK32) | 2.94
MAPKAPK3 (Homo sapiens, UniProt Q16644) | 97.9
CAMK2B (Homo sapiens, UniProt Q13554) | 96.9
RPS6KA5 (Homo sapiens, UniProt O75582) | 24.8
ABL1 (Homo sapiens, UniProt P00519) | 98
HIPK4 (Homo sapiens, UniProt Q8NE63) | 95.7
DYRK3 (Homo sapiens, UniProt O43781) | 102
Cyclin-dependent kinase 4, with cyclin D3 (CDK4, Homo sapiens, UniProt P11802) | 99.7
AXL (Homo sapiens, UniProt P30530) | 99.3
PRKACG (Homo sapiens, UniProt P22612) | 108
BLK (Homo sapiens, UniProt P51451) | 103
EPHB4 (Homo sapiens, UniProt P54760) | 90.9
Cyclin-dependent kinase 6, with cyclin D3 (CDK6, Homo sapiens, UniProt Q00534) | 95
MAP4K4 (Homo sapiens, UniProt O95819) | 82.5
TSSK2 (Homo sapiens, UniProt Q96PF2) | 97.1

Set 2
Cell line: A-375
Tested at: 100 µM
Time: 18 h
Compound | viability [%]
O=C(O)CN(CCN(CC(=O)O)CC(=O)O)CC(=O)O | 85.4
CC(C)c1nc(CN(C)C(=O)N[C@H](C(=O)N[C@@H](Cc2ccccc2)C[C@H](O)[C@H](Cc2ccccc2)NC(=O)OCc2cncs2)C(C)C)cs1 | 16.7
NCc1ccc(C(=O)O)cc1 | 93
CN(C/C=C/C#CC(C)(C)C)Cc1cccc2ccccc12 | 39.4
CC(C)[C@H](N)C(=O)OCC(CO)OCn1cnc2c(=O)nc(N)[nH]c21 (some centres unmarked) | 80
O=C1c2c(O)cccc2Cc2cccc(O)c21 | 97
C[C@@H](c1nc(-c2ccc(C#N)cc2)cs1)[C@](O)(Cn1cncn1)c1cc(F)ccc1F | 48.1

Set 3
Cell line: mouse MPNST tumor cells
Method: high-content immunofluorescence imaging
Item: nuclear SOX9
Tested at: 10 µM
Time: 12 h
Setting: mean of 2 replicates
Relative to: DMSO control
Direction: higher = more nuclear SOX9
Compound | nuclear SOX9 intensity
CCN(CC)CCCC(C)Nc1nc(C)cc(Nc2ccc3nc(C)cc(N)c3c2)n1 (centres unmarked) | 99.7 % of DMSO
CN1C(=O)C(Cc2c[nH]c3ccccc23)NC1=S (centres unmarked) | 93.5 % of DMSO
Nc1ccc(-c2cccc3c(=O)cc(N4CCOCC4)oc23)cc1 | 109 % of DMSO
C/C=C(/C(=C/C)c1ccc(O)cc1)c1ccc(O)cc1 | 105 % of DMSO
CC(=O)c1ccc2c(c1)N(CCCN(C)C)c1ccccc1S2 | 180 % of DMSO
CC(CCC(=O)O)C1CCC2C3C(O)CC4CC(O)CCC4(C)C3CCC12C (centres unmarked) | 96.2 % of DMSO
CCOC(=O)c1c(C)[nH]c2ccc3c(c12)CN1CCc2cc(OC)ccc2C1O3 (centres unmarked) | 212 % of DMSO

Set 4
Structure (SMILES): Cc1cc(-n2nc(Cc3cc(F)cc(C(F)(F)F)c3)nc2C)ccc1C(N)=O
Method: competition with immobilised ligand
Tested at: 1 µM
target | effect on | remaining binding [%]
CDK11A (Homo sapiens, UniProt Q9UQ88) | binding | 100
ACVR2B (Homo sapiens, UniProt Q13705) | binding | 100
LYN (Homo sapiens, UniProt P07948) | cell-free assay | 100
CDK15 (Homo sapiens, UniProt Q96Q40) | cell-free assay | 88
Myosin-IIIb (MYO3B, Homo sapiens, UniProt Q8WXR4) | binding | 100
PRKX (Homo sapiens, UniProt P51817) | cell-free assay | 100
Tyrosine-protein kinase ABL1, phosphorylated (ABL1, Homo sapiens, UniProt P00519, Y253F) | cell-free assay | 90
EGFR (Homo sapiens, UniProt P00533, del747-752/P753S) | cell-free assay | 83
MKNK1 (Homo sapiens, UniProt Q9BUB5) | cell-free assay | 100
IKBKE (Homo sapiens, UniProt Q14164) | cell-free assay | 82
ABL2 (Homo sapiens, UniProt P42684) | cell-free assay | 100
PIP4K2B (Homo sapiens, UniProt P78356) | cell-free assay | 100
EGFR (Homo sapiens, UniProt P00533, A750P/del747-749) | cell-free assay | 100
BLK (Homo sapiens, UniProt P51451) | cell-free assay | 100
RIOK3 (Homo sapiens, UniProt O14730) | cell-free assay | 100
CSNK1E (Homo sapiens, UniProt P49674) | cell-free assay | 100
NEK4 (Homo sapiens, UniProt P51957) | cell-free assay | 100
NEK7 (Homo sapiens, UniProt Q8TDX7) | cell-free assay | 97

For quick reference, copied from above (set 1):
target | remaining activity [%]
TSSK2 (Homo sapiens, UniProt Q96PF2) | 97.1
PDPK1 (Homo sapiens, UniProt O15530) | 97
HIPK2 (Homo sapiens, UniProt Q9H2X6) | 94.1
EPHA4 (Homo sapiens, UniProt P54764) | 103
